Published values of several laboratories.
A part holds a random share of what one study measured. Substitutions count along the parent as printed.

Series 1 — method: universal PBM; molecule type: double-stranded DNA, one strand shown; matrix: in vitro; concentration: 600 nM; direction: higher = stronger binding
Target: Sal-like protein 4, full length isoform A (SALL4, Homo sapiens, UniProt Q9UJQ4, residues 1-1053)
Sequence of UniProt Q9UJQ4 (whole entry, looked up): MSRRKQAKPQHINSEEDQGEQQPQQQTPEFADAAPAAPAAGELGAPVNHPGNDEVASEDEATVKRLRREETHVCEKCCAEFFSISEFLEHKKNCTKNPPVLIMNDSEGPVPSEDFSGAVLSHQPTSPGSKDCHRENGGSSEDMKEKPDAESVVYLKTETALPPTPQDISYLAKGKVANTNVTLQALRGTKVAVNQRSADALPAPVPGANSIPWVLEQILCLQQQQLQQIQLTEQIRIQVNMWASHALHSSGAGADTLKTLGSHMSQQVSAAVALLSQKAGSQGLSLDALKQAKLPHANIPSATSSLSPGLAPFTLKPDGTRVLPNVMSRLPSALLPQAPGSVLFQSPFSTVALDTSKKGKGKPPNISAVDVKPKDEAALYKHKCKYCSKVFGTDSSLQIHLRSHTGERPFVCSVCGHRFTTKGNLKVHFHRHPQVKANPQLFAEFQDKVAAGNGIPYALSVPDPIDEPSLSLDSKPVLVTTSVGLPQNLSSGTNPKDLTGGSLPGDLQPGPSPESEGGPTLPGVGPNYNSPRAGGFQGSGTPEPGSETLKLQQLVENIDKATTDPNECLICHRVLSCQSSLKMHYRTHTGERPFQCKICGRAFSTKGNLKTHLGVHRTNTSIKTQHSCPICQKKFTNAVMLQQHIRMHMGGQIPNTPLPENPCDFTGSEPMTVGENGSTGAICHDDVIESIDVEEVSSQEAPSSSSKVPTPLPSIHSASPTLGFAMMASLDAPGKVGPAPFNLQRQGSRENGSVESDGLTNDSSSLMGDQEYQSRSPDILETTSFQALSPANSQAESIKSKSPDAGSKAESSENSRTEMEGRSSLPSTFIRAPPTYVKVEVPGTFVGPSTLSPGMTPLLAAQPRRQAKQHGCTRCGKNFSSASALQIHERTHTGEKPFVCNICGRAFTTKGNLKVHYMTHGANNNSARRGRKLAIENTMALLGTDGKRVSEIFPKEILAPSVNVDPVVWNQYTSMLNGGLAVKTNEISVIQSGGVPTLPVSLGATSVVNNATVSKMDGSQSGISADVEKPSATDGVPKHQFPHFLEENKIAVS
Setting: 8-mer, flanks averaged, mean of replicates
With `CCGGCAGC` the E-score was -0.281.
`CAAAGTTG` has an E-score of 0.011.
`GTGGGCAA` gave an E-score of -0.0975.
With `GGAGTGCA` the E-score was -0.128.
For `AAGATCAG`, the E-score was -0.153.
For `AATTGGTA`, the E-score was 0.152.
The E-score of `CAGCCCAG` is reported as -0.376.
`TTCGGCAA` has an E-score of 0.00215.
With `GAGTGTGC` the E-score was 0.0322.
`ACCCTACT` has an E-score of -0.101.
With `GGCGTTAA` the E-score was -0.105.
`ATTATGAG` has an E-score of 0.327.
For `CATAGCAC`, the E-score was 0.165.
`ATACAGAG` has an E-score of 0.0652.
`GTAGCCTA` has an E-score of 0.0453.
The E-score of `CAACAGGA` is reported as -0.137.
`TCCCAAGA` has an E-score of -0.00302.
The E-score of `AACACGAG` is reported as 0.0116.
`CATACTAC` gave an E-score of 0.139.

Series 2 — method: RNA Bind-n-Seq; molecule type: RNA; matrix: in vitro; concentration: 200 nM; setting: whole 134-nt RNA, ends assumed; together with: 150 mM LiCl; relative to: input library; direction: higher = stronger binding; each molecule: 7-deaza-guanosine replaces G
Target: Fragile X messenger ribonucleoprotein 1, C-terminal low-complexity region (Fmr1, Mus musculus, UniProt P35922)
With `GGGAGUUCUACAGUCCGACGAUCUCCUGUGCUACACAUCGUAUGUACCGAAUCGGGGUUUUUGGGGUUUUUGGGGUUUUUGGGAAAGUAUUAUGUUACGCCGUUCGGAUCUGCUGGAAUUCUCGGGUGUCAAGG` the log2 enrichment was 0.46.
`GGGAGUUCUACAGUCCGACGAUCUGGCCCUGGUGGCAUGCGGGGUGGAAGAGGUGGCCUCAUGGAUCGUGGUGGUCCCGGUGGAAUGUUCAGAGGUGGCCGUGGUGGAGACAGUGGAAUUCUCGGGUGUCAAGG` gave a log2 enrichment of 0.486.
For `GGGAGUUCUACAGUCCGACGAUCGUCCUGUGCUACACAUCGUAUGUACCGAAUCGGGGUUUGGGGUGGGGAAAAAAAGGGGAAAGUAUUAUGUUACGCCGUUCGGAUCUGCACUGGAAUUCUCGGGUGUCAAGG`, the log2 enrichment was 0.0631.
For `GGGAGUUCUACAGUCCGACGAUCUCCUGUGCUACACAUCGUAUGUACCGAAUCGGGGAGGGGAAAAAAAGGGGAAAAAGGGGAAAGUAUUAUGUUACGCCGUUCGGAUCUGCAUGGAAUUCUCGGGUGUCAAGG`, the log2 enrichment was 0.216.
For `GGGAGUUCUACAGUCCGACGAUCUCCUGUGCUACACAUCGUAUGUACCGAAUCGGGAAAAAGGGAAAAAGGGUUUUUUUGGGAAAGUAUUAUGUUACGCCGUUCGGAUCUGCAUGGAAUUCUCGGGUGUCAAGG`, the log2 enrichment was -1.32.
`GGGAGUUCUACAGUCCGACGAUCCCUGUGCUACACAUCGUAUGUACCGAAUCGGGAAAAAAAGGGUUUUUGGGAAAAAAAGGGAAAGUAUUAUGUUACGCCGUUCGGAUCUGCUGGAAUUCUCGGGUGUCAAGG` gave a log2 enrichment of -1.81.
`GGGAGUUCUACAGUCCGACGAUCACCAUGCAGGUGGGCAUCUUUGGGAAGUGGGGCAAGGGGGGGAUAGGGAGGGGGAAAACACUUUGGGAACAGGUGGUCCCAGGUCGUUUCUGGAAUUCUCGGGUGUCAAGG` gave a log2 enrichment of 1.18.
`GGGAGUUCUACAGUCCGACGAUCCUCAAGUCCUGUGCUACACAUCGUAUGUACCGAAUCGGGGAAGGAAGGAAGGGAAAGUAUUAUGUUACGCCGUUCGGAUCUGCACUUCCAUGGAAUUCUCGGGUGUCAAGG` has a log2 enrichment of -1.02.

Series 3 — target: CCND2, cyclin fold, Cln2 fusion (human); method: yeast growth competition, sequencing; matrix: yeast; setting: strong parent motif; relative to: not given; direction: higher = stronger binding
Starting sequence: E2F1 docking peptide (human); PPVKRRLDFETDH
`PPVKRRLQFETDH [D8Q]` — result for “normalised enrichment score”: 1.21.
For `PPVKRRQDFETDH [L7Q]`, “normalised enrichment score” read 0.103.
For `PPVKRRLDFETIH [D12I]`, “normalised enrichment score” read 1.75.
For `PNVKRRLDFETDH [P2N]`, “normalised enrichment score” read 1.51.
`PPVKRRLDFETVH [D12V]` — result for “normalised enrichment score”: 1.78.
`PPVKRRLDFETEH [D12E]`: “normalised enrichment score” 2.03.
`PPVKRRLDFETHH [D12H]`: “normalised enrichment score” 1.92.
For `PPVKRRLDFEIDH [T11I]`, “normalised enrichment score” read 2.06.
Under “normalised enrichment score”, `PPVLRRLDFETDH [K4L]` is recorded as 0.374.
`PPVKRRLFFETDH [D8F]` — result for “normalised enrichment score”: 1.22.
Under “normalised enrichment score”, `PPVKRRPDFETDH [L7P]` is recorded as 0.209.
`PPVQRRLDFETDH [K4Q]` — result for “normalised enrichment score”: 1.85.
For `PPVKRGLDFETDH [R6G]`, “normalised enrichment score” read 0.18.
`PPVPRRLDFETDH [K4P]` — result for “normalised enrichment score”: 0.34.
Under “normalised enrichment score”, `PPVKRRLDDETDH [F9D]` is recorded as -0.0679.

Series 4 — method: RNA Bind-n-Seq; molecule type: RNA; matrix: in vitro; concentration: 365 nM; relative to: no-protein control; direction: higher = stronger binding
Target: RNA binding protein fox-1 homolog 2, RRM domain, GST-SBP tag (RBFOX2, Homo sapiens, UniProt O43251-10, residues 100-194)
Setting: natural RNA segment, single round, ends assumed
Target sequence (chain): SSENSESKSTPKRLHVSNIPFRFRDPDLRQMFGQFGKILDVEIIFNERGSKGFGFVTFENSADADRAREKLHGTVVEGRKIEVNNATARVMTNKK
`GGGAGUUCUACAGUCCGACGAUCUGUGGUCUUGCUGUCUCUCCCACUGUGCCCUGGCCUGGCUUGUGGCUUCUUCUUUGCCUGUUCCAAAAGCCAGGGCCCUGGGCCUGCUCUUCAUCUUGCGGGCCUCCUAGUGGAAUUCUCGGGUGCCAA`: “RBNS enrichment (R)” 0.382.
Under “RBNS enrichment (R)”, `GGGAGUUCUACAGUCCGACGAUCAGAAUUUAUUUUAUAAAUACUUUGUUUACAUUUUAGAUUGUACUUGUCUUUAUUUAAAAUGAUGAAUCUAGUCUGAAUCAGCUGUUAUUCCAAGCUAUCAUGCUUAAGCUUGGAAUUCUCGGGUGCCAA` is recorded as 0.778.
Under “RBNS enrichment (R)”, `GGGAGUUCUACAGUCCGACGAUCACACGAAGGCUGCCCCUGUAAGGUUUCAAUGCAUACAAUAAAAGAGCUUUAUCCCUAACUUCUGUUACUUCGUUCCUCCUCCUAUUUUGAGCUAUGCGAAAUAUCAUAUGUGGAAUUCUCGGGUGCCAA` is recorded as 0.623.
Under “RBNS enrichment (R)”, `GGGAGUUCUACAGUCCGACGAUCAGGAUUAAUUAACAAGUUAAUUUUAAGGUGGCCACUGUACACUGCUCUAAAGUCAUAUCCCCUCCCCGCCCCCAGUCAUCAUGGAAGUAACCACUACAAAGAGAUAACACUGGAAUUCUCGGGUGCCAA` is recorded as 0.277.
For `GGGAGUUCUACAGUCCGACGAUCGUGCACCCAGCCUUUGAACAGAGCCUAGGGUCUGUAUGCCAUGACACUGGAAGUCAUAGAAAUUUCCCUGGUCAUGCUUUGUUUGAACUGUCACUGAAUGAACCUUAUCGUGGAAUUCUCGGGUGCCAA`, “RBNS enrichment (R)” read 1.56.
`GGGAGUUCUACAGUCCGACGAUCCCAAGUGACCUUGUCCCCAGCUCCCUCCUCCCAGGCUGGUGUGAGUGUGCGUGCGUUUGUGCCGAGCUUCUAUUUCAUAUUGCAAAUAUAAAUAAAGGAAGGCAGUUUACUGGAAUUCUCGGGUGCCAA` — result for “RBNS enrichment (R)”: 0.903.
For `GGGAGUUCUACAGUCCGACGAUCAUAAGGAUUAUACAGUAUUAAUUAAUUAUAAGGCCCAAAGUUUGUUUUGGCAAAUAAAGUAUUAUUCUCUAUCAUCAUCUUUUGAAUUCCUGUCCCUAGUAUGUUCUUUCUGGAAUUCUCGGGUGCCAA`, “RBNS enrichment (R)” read 0.5.
Under “RBNS enrichment (R)”, `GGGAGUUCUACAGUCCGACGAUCUACUUAGAGUUUCUGUUUGAUUCUUUUUUAAUAAACUACUCUUUGAUUUAAUUGUUUGGUGUAAGCAUUUUUACUAGUUCUUUAUUUCUUACACAUCUUUCUUGCUGUUGUGGAAUUCUCGGGUGCCAA` is recorded as 0.986.
